Experimental data gathered from unrelated publications.
Numbered parts are unrelated; each lists some results of a single study.

Block 1
Target: Hepatocyte nuclear factor 3-alpha (Foxa1, Mus musculus, UniProt P35582, residues 1-468, full length assumed)
Sequence of UniProt P35582 (whole entry, looked up): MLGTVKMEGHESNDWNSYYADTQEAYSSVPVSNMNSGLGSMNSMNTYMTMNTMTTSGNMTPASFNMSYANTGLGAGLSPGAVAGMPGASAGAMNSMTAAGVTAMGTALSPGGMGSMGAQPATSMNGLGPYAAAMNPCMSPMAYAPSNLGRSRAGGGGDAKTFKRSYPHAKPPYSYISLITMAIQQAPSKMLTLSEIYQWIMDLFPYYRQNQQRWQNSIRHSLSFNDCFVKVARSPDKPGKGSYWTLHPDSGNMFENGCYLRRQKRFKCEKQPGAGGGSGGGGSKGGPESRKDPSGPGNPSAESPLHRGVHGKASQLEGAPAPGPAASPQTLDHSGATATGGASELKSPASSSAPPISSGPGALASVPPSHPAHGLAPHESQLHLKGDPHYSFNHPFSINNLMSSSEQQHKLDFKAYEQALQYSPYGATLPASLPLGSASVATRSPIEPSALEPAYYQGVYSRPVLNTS
Method: EMSA with sequencing
Molecule type: double-stranded DNA, one strand shown
Sample: in vitro
Tested at: 10 and 20 nM
Setting: whole designed probe, mean of two concentrations, ends assumed
Baseline: negative control set to 0
Reading: higher = stronger binding
Shared flanks, not repeated: GTGAGCGGTGCCCATTGATGGGGAAC … TTTCACTGGGATCGTGGGGAC
| Sequence | normalised bound fraction [ratio] |
| --- | --- |
| CAATAAGTCAGTCACCGTGAAGCATTCTAAGCACTGAATAAGACAGAGCATCCATTCCACACCCTATTTCCATTCCCAGTTAATCTTCAAAGAGTCATCTTGGCAAAAACATTCCAAGATAAAAATAGCAAGATCTTCTAGAAAAGATTTAAGTTTCAAGGCAAAAAGAAAAATCCTTTATGGTTACTGAGTA | -0.0812 |
| TATCTGAGAAGTCTGATCCAGAGTTGATGAGCAGATAAAAAATGTTGAAAGGATCCACGCTCTTTCCATCTCTCTGCTTAGTGTTCCTCACTGTGTTTGCTTTTCTTCAGTTTGTTACTTTTTTTTTTTTTTGAGATCGAGTTTCGCTCTTGTTACCCAGGCTGGAGTGCAATGGGGCGATCTCTGCTCACTG | 0.35 |
| TACTGAATAATAATTATTAAGCTATATACTTACAGAAAAGAGGATATGAAAATATTAATCAAGTATGACCTCTACTGGTAACTTTTATGCACTGTCATCTAGAGATCTAAGATTTTTATTGAGCTCCTACCATAAAGACACATCATTTCAATTCAACCATCAGTAGCCTCTACTTTTTAAAAAAATATTTTTA | 0.046 |
| CTCATTCCTTGCTTCCGCCAATAATCTGACTAGTAAAGAAGTCACTGCATGCCACAAATTGTCAGTGCTGACTTCCTCAACAAGGAAGTATAAGTAAATAAATATTAATATATATGCAAAGAGTGACTCAGTTCCATCTTGAGAATACCAACTCCTGATGCCAACTGATTGTCAGTCATGGCTACAACAGGAG | 0.429 |
| GTGGATGTCAGCTCACTCACTCATAGCCTTCCAGCCAGTCTCCACAGTCCCCACTGGGAAATCTGTCATGACCCTGTCATGCTCCCCAGATAGATGTTTGCTTAGAGAAAACCAAACATCTGATAAGGGAAGATCAGTAGAATCTGGTTTTATGTTCCCTAGGGTCAACCCAGAGTGAAATATAAGAAGTAAA | 0.312 |
| ATCTTCCCCCTCTTCCTTGCCCCACCAGCTCACCTTCCCGGGTTATTTGCAGATAGGAAAATAAATAAAGCCGGCATTCGTTAACCCTCTGGTAGCCTACACTGCTGTTTGCTCTGGATGAATCATGGTCCTTTGGCGACGCCAGGCTCCGGGAGAGCAAAGCACCGTGTCAGGGCCATGATCCGGGGTGGCC | 0.366 |
| ATCTTCCCCCTCTTCCTTGCCCCACCAGCTCACCTTCCCGGGTTATTTGCAGATAGGAAAATAAATAAAGCCGGCATTCGTTAACCCTCTTCTCAAACGGTGCGCTGTTTGCTCTGGATGAATCATGGTCCTTTGGCGACGCCAGGCTCCGGGAGAGCAAAGCACCGTGTCAGGGCCATGATCCGGGGTGGCC | 0.376 |
| ATCTTCCCCCTCTTCCTTGCCCCACCAGCTCACCTTCCCGGGTTATTTGCAGATAGGAAAATAAATAAAGCCGGCATTCGTTAACGCAGTTCACGCGCATACTGCTGTTTGCTCTGCATCTAACATGGTCCTTACGCGACGCCAGGCTCCGGGAGAGCAAAGCACCGTGTCAGGCGCATGATCCGGGGTGGCC | 0.363 |

Block 2
Target: PABPC1L2, full length, GST fusion (mouse, UniProt A0ABA7IW68)
Method: RNAcompete
Molecule type: RNA
Sample: in vitro
Tested at: 20 nM
Setting: 7-mer, probes averaged, single round
Baseline: mean of 7-mers
Reading: higher = stronger binding
Construct (chain): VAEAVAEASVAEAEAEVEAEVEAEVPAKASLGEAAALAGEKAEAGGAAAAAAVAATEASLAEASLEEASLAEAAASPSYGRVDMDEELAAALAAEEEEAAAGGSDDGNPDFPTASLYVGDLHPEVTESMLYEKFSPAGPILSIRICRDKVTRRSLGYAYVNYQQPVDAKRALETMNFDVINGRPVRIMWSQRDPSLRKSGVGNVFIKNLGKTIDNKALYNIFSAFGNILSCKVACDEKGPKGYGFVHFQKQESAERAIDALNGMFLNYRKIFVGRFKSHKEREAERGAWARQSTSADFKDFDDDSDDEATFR
| Sequence | 7-mer Z-score |
| --- | --- |
| CUAAUUA | -0.273 |
| ACUGCUC | -0.161 |
| AAACCCG | 0.329 |
| UGGUCUA | -0.335 |
| AUAUGUG | -0.0935 |
| CCUUGAU | -0.249 |
| UACUAUC | -0.257 |
| CGGACCC | -0.228 |

Block 3
Target: RING finger protein unkempt homolog, zinc fingers 1-6, GST-SBP tag (UNK, Homo sapiens, UniProt Q9C0B0, residues 30-357)
Method: RNA Bind-n-Seq
Molecule type: RNA
Sample: in vitro
Tested at: not given
Setting: RNA with constant flanks, ends assumed
Baseline: input RNA pool
Reading: higher = stronger binding
Shared flanks, not repeated: GGGAGUUCUACAGUCCGACGAUC … CAACAGAGGAUUGAGCAUCA
Construct (chain): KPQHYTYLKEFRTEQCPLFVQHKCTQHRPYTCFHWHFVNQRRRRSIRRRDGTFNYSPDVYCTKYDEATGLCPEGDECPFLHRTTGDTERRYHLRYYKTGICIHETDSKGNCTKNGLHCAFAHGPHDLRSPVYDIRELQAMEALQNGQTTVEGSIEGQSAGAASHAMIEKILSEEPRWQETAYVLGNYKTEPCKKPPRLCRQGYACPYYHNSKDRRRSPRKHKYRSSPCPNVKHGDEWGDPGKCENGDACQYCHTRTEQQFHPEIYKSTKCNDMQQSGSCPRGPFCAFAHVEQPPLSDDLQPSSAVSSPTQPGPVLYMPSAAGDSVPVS
| Sequence | bound/input enrichment |
| --- | --- |
| CUCCUGCUGCUGCUGCUCUGCAUCCAGCUCGGGGGAGGACAGAAGAAAAAGGAGAAUCUUUCCGCUGAAAAAGUAGAGCAGCUGAUGGAAUGGAGUUCCAGACGCUCAAUCUUCCGAAUG | 0.158 ratio |
| GAAGCAGAUAAGUGGAGCACGUUGAGCGCCGAUAUUGAGGAGACAUUUAAGACUCAGGACACCGCUGUGAUUUCUGCCAAGCUAACAGGUAUGCAGAACAGCUUAAUGAUGCUUGUUGAU | 0.0865 ratio |
| UAUUAUUUAUUAUAGCAUUUUUGAUACCUCAUAUUCUGUUUACACAUCUUGAAAGGCGCUCAGCCGUUCUCUUACUAAACAACCACUACUCCAGAGAAUGGCAACGCUGAUUACCAGUAC | 13.1 ratio |
| GAGAUAAUGGCCUCAGCUGCUAAGGAAUUUAAAAUGGACAACUUUUCACCUAAAGCUGGCACCCGCAAAUUGCAGCAGACAGUACCAGCUGAUGCGUCUCCUGAUUCUAAGUGUCCUAUA | 0.185 ratio |
| UCUGUUAAUCUCAAAGUGUGGCCAACUCCCAUUUACUUAGAGGCUGAUUAUCUAGUUUUGCCGUUCCUCAGGCCUCUAAUUUAUUUUUUGCUUUCUGCUUUAUUGAUCUUUUGCAUGUCC | 2.1 ratio |
| GACUUUUGUGUAAAGUAAUGCAUGCAAUCUUGUAAUGUGGCCUGAAAACAAGCUAACUGUAUCCGAAACUAUUCAAAAACUAGGUAUUUUUAGUGACCUGUAGGCAGUGGCAAAUACAGA | 1.44 ratio |
| GCCAUGACGCUGAAUGAGAGCAACAUCUCUGCUGUCACCGGACUUAUCCGAUGUCAGUUAACCGAGGGGCAGUUGCAAGAUGCAGACCAGCAGUUGGAGUUCUUCAGUGAAUUCCAGCAG | 0.128 ratio |
| AAAUAAAUAUUUAAUUUUUUUAAUUGCUCUUGUAUAAUCAGAUGCCCUUUUUAGUAUUAUUUCCGAAGCAUUUGGGAGGAUUUUGCCUAAAAUACAAUUUAUUGGGGGAGACUAGAUUUU | 4.32 ratio |

Single results of other studies
| Molecule | target | test | test system | conditions | scale | measurement | value |
| --- | --- | --- | --- | --- | --- | --- | --- |
| KCVKRKLFAEDSS | human cyclin A2 | peptide binding, competitive growth sequencing | peptide, Saccharomyces cerevisiae, cyclin A2-Cln2 fusion strain | concentration not given, single-residue mutant peptides | baseline: unfused Cln2 strain, direction not given | median binding score | 6.77 |

Some of these lines once more (block 2):
| Sequence | 7-mer Z-score |
| --- | --- |
| CCUUGAU | -0.249 |
| UACUAUC | -0.257 |
| CGGACCC | -0.228 |
